Measurements from different studies.
Each line is one published result; not all experiments were run side by side.
UniProt P06493, sequence (whole entry, looked up): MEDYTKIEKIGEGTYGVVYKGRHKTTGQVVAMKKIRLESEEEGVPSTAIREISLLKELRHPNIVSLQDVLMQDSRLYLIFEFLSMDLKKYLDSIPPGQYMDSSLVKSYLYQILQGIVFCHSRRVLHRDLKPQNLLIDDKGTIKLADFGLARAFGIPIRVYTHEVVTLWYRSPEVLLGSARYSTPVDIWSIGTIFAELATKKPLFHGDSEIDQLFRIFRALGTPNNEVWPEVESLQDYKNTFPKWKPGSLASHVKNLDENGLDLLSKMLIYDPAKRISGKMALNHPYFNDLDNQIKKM

Structure (SMILES) = CC(C)[C@@H](C)Nc1nc(-c2cccs2)nc(Cl)c1-c1ccccc1F; target or system = HEK293; assay = cell growth or viability, resazurin; setting = 48 h; measurement = CC50; result = > 50 µM
Structure (SMILES) = COc1cccc(NC(=O)Nc2ccc(Oc3nc4ccccc4n4cnnc34)cc2)c1; target or system = WISH; assay = cell growth or viability, MTT; setting = 3.125 µM, 24 h; measurement = viability; result = 100%
Structure (SMILES) = CNc1ncc2c(/C=C/C(=O)N3CCC(OC)CC3)nn(Cc3cccc(C(F)(F)F)c3)c2n1; target or system = Cyclin-dependent kinase 1, with cyclin E1 (CDK1, Homo sapiens, UniProt P06493); assay = enzyme activity, inhibitor, radiometric; setting = 1 µM; measurement = remaining activity; result = 89%
Structure (SMILES) = CC1(C)OC[C@@]2(C)[C@H]3CC[C@@H]4CN(Cc5ccc(F)c(Cl)c5)[C@@H](C5=CCOC5=O)C[C@H]4[C@]3(C)CC[C@H]2O1; target or system = MRC5; assay = cell growth or viability, ATP luminescence; setting = 25 µM, 72 h; measurement = cell death; result = 30.9%
Structure (SMILES) = CC(C)(C)CNc1nc(-c2cccs2)nc(Cl)c1-c1c(F)cc([N+](=O)[O-])cc1F; target or system = HEK293; assay = cell growth or viability, resazurin; setting = 48 h; measurement = CC50; result = > 50 µM
Structure (SMILES) = Cc1ccc(S(=O)(=O)[N](Nc2ccc([N+](=O)[O-])cc2[N+](=O)[O-])[Sn]([Cl])[Cl])cc1; target or system = HEK293; assay = cell growth or viability, MTT; setting = 7.8125 µg/mL; measurement = viability; result = 91.6%
Structure (SMILES) = Nc1ccn([C@@H]2O[C@H](CO)[C@@H](O)C2(F)F)c(=O)n1; target or system = MDA-MB-231; assay = cell growth or viability, MTT; setting = 5 µg/mL, 48 h; measurement = viability; result = 46.8%
Structure (SMILES) = CC1(C)OC[C@@]2(C)[C@H]3CC[C@@H]4CN(Cc5ccco5)[C@@H](C5=CCOC5=O)C[C@H]4[C@]3(C)CC[C@H]2O1; target or system = MRC5; assay = cell growth or viability, ATP luminescence; setting = 25 µM, 72 h; measurement = cell death; result = -2.9%
Structure (SMILES) = Fc1cc(F)c(-c2c(Cl)nc(-c3cccs3)nc2N2CCCOCC2)c(F)c1; target or system = HEK293; assay = cell growth or viability, resazurin; setting = 48 h; measurement = CC50; result = > 50 µM
Structure (SMILES) = C[C@@]12COCO[C@@H]1CC[C@]1(C)[C@@H]2CC[C@@H]2CN(Cc3ccco3)[C@@H](C3=CCOC3=O)C[C@H]21; target or system = MRC5; assay = cell growth or viability, ATP luminescence; setting = 25 µM, 72 h; measurement = cell death; result = -13.1%
Structure (SMILES) = COc1cc(/C=C/C(=O)C(=Cc2ccc(O)cc2)C(=O)/C=C/c2ccc(O)c(OC)c2)ccc1O; target or system = WRL68; assay = cell growth or viability, MTT; setting = 12.4 µg/mL, 48 h; measurement = viability; result = 89.4%
Structure (SMILES) = CC(=O)OC[C@@]1(C)[C@H]2CC[C@@H]3CN(Cc4ccc(F)cc4)[C@@H](C4=CCOC4=O)C[C@H]3[C@]2(C)CC[C@H]1OC(C)=O; target or system = MRC5; assay = cell growth or viability, ATP luminescence; setting = 25 µM, 72 h; measurement = cell death; result = 7.1%
Structure (SMILES) = Cc1csc2[nH]c(=O)n(O)c(=O)c12; target or system = HFF; assay = cell growth or viability, MTS; setting = 10 µM, 7 days; measurement = viability; result = 89%
Structure (SMILES) = CNC(=O)c1cc(Oc2ccc(NC(=O)Nc3ccc(Cl)c(C(F)(F)F)c3)cc2)ccn1; target or system = WISH; assay = cell growth or viability, MTT; setting = 1.56 µM, 24 h; measurement = viability; result = 100%
Structure (SMILES) = CC(=O)OC[C@@]1(C)[C@H]2CC[C@@H]3CN(Cc4ccc(C(C)(C)C)cc4)[C@@H](C4=CCOC4=O)C[C@H]3[C@]2(C)CC[C@H]1OC(C)=O; target or system = MRC5; assay = cell growth or viability, ATP luminescence; setting = 25 µM, 72 h; measurement = cell death; result = 11.3%
Structure (SMILES) = COc1cccc2c1C(=O)c1c(O)c3c(c(O)c1C2=O)C[C@@](O)(C(=O)CO)C[C@@H]3O[C@H]1C[C@H](N)[C@H](O)[C@H](C)O1; target or system = SW480; assay = cell growth or viability, MTT; setting = 25 µg/mL; measurement = viability; result = 54.4%
